Assay results collected from several papers.
Numbered parts are unrelated; each lists some results of a single study.

Study 1 — technique: RNA Bind-n-Seq; form: RNA; matrix: in vitro; tested at: 365 nM; reference: no-protein control; direction: higher = stronger binding
Target: RNA binding protein fox-1 homolog 2, RRM domain, GST-SBP tag (RBFOX2, Homo sapiens, UniProt O43251-10, residues 100-194)
Setting: natural RNA segment, single round, ends assumed
Shared flanks, not repeated: GGGAGUUCUACAGUCCGACGAUC … UGGAAUUCUCGGGUGCCAA
Construct (chain): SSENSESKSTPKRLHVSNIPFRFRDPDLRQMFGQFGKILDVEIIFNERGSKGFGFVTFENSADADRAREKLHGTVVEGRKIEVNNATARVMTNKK
Strand | RBNS enrichment (R)
GUGGGUGGUGAUCCUUGUCAGGAUGUACAGUCCUUGCUCCCACCCCAUCCGGGAUGGCCGCCUGUCCCUGACUAUUGAGUCCUGUUGUUGUAAGCCAGGCAUGGAGGGCU | 1.23
UUGCUGGCCAGGGGUCCCUUGGGGCAGCACGUGGACCCUUCCAAAACUAUACACACUGCCCCCGACUCCAUGCAGUCUUGAGUGCCCUAAGUUGUCAGCCCAACAGAGUU | 0.476
GAACCUUCAUGUCUUUUCUAGUGGGCAACCAGGCUUCCAAAAUAGCACUGACCUGGGAGGCCCCCAAGUAAGGCCAAGAAGUCUCUGCUACUCUAAUCUUUUACGUAUUA | 0.453
CCACUCUCUGUGGGGUCCUGCGUACCUACAGGGUGGCCUGAAAACAGACUCCACACGUGGAAACAAGACUGGGUUUCUCAGCUUCCGUGUCAAGUCAGCCAGAGGAAAGA | 0.297
CACAAGAGCACCAGACUUGGGGGUGUAAUCUCCGGCAACUUGCAUGCCCUCUGAAAGAAGGGUUUUCUGUGCUGUGAAAUGCAUAGAACUAUACUUUGCCAUGCACGACU | 7.34
CUCUUGCUCUCCAAUGGGGAGACCAUGUUUCCUAGAGUGUGAGCUGCCCCUCACCCCCUGAAAAGCUGACUCACUGUGAGUGACCUUGGGCAAGUCCCCAAACCUCCUUG | 0.237
AAUUGGUUUAAAAUACUAUUUGCAGUGAGACCAUCUUUAGACUUGGAUAUUCUUGAUUCUUAGUUCAAAAAAGUUAUUUUGUCAAUAAAACAUGCUUAAAGGAGUAACUA | 0.39
CGGUUCAGGGGGGGAGUAGGAAGUAAAACCGUGGAGAGGCAAGUGAGAAACGCAUACUCUCCCCGUUCAGUGUUGUCUGUGCUUUGUUUGGAUCCACGCCUUGCGUGGGA | 1.25

Study 2 — technique: protein-binding microarray; form: double-stranded DNA, one strand shown; matrix: in vitro; tested at: 0.8 µM; setting: whole 60-bp probe, no competitor; direction: higher = stronger binding; shared flanks, not repeated: … GTCTTGATTCGCTTGACGCTGCTG
Target: Centromere-binding protein 1, full length, N-terminal tag (CBF1, Saccharomyces cerevisiae, UniProt P17106, residues 1-351)
Chain of UniProt P17106 (whole entry, looked up): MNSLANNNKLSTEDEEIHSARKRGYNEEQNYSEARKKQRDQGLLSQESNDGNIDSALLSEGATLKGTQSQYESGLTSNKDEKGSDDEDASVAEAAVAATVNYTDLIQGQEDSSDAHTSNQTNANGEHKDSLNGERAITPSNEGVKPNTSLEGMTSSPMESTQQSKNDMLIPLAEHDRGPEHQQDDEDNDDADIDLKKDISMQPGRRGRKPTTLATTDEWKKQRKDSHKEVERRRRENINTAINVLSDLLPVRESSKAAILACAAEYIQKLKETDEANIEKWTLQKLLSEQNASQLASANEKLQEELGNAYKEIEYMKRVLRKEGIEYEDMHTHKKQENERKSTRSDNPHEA
Strand | fluorescence intensity [a.u.]
CTAAAATATGTATTAATGGTGGTGCCTGTCAGGTTC | 498
TGTACGAAGCTATGTGGTGACAGTATAGTAGTTAGG | 520
CCTAACTACTATAATCAGACTAAATAGCTTCGTACA | 561
CTAAGATTGAAATCCTCCGTGATTTGCTCCGGATTC | 513
GAAGTTCAACCCGGACACGTTGTTATTAGCTGGTAG | 604
GAACTGGATGCTTTTCACGTAACCTGAAACAAGTAG | 590
GAAAGTTTGCGATGTTCTGATGCTTCAGGATTTTAG | 489
CTACTCAGCGGGTGTCACCACTTCGTCCTCATCTTC | 526
GAAAAAAGAACAGGTGACTCCGTTTTCAAAATATAG | 2760
GAAATGAACGCTACTGATGATGCAAATGAAGCTTAG | 555
CTAATATAAGGTGTTCACGCGATTTTCTTGTTATTC | 611
CTAATCCATTTTTAAAACGTGTGACTGTTTTCCTTC | 746
CTATCCTTAGTTAAGCACGTGCCGATGATATCATTC | 17200

Study 3 — technique: RNA Bind-n-Seq; form: RNA; matrix: in vitro; tested at: not given; reference: input RNA pool; direction: higher = stronger binding
Target: RING finger protein unkempt homolog, zinc fingers 1-6, GST-SBP tag (UNK, Homo sapiens, UniProt Q9C0B0, residues 30-357)
Setting: RNA with constant flanks, human and mouse sites, ends assumed
Shared flanks, not repeated: GGGAGUUCUACAGUCCGACGAUC … CAACAGAGGAUUGAGCAUCA
Residues (chain): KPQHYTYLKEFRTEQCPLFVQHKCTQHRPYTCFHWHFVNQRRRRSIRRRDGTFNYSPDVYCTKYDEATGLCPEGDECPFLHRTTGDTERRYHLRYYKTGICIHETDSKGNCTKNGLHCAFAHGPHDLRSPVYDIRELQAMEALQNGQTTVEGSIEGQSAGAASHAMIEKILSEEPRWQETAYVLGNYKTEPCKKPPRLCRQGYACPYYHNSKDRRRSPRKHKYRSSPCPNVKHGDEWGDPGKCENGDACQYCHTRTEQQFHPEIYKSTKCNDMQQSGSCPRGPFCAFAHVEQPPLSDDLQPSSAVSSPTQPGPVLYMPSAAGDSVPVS
Strand | bound/input enrichment
UCUCGGGAACAGCUUGCGAUUGCAGAGUUUGCAAGAUCACUUCUUGUUAUUCCCAAUACACUAGCAGUUAAUGCUGCCCAGGACUCCACAGAUCUGGUUGCAAAAUUAAGAGCUUUUCAU | 0.12 ratio
UUUCUUCAGUUAUGGUAGGAGAAACAGAAGCAUCAUCUUCAUCUCAGGAUAAAGACAAAGAUAGCCGUUGUACCCGGCAGCACUGUACAGAAGAGGAUGAAGAAGAGGAUGAAGAGGAAG | 0.323 ratio
AACUGUAUCUGUGAUAUUGAAAAUUGUUCCAACAUGGCACCCCUCUACAGUGACUCUUACUUAGUCUUCUGGGCCAUUUUCAACUUGGUGACCUUUGUGGUAAUGGUGGUUCUCUAUGCU | 0.335 ratio
UUGCUAGGAAAAAUUACAGCUUUGCAAUAUAACAACUGUUUUUGGAUAUUUCUGAAUGUACUAGAACAAAUAAUCAGUCUGUUUUUAAUGAAUCUAUUUGUAUUUUCCCAAUCAUUCCCU | 0.372 ratio
GUUAUAAAAGCCUUCCGUCACUCGUACCUUUACGAAUUGCGGCAUUAAAUGCACUUGCUGCCUGCAAUUACCUUCCUCAGUCCAGGGAGAAAAUCAUCGCUGCACUCUUCAAAGCCCUGA | 0.245 ratio
GAACCAUCCUAACAUAGUGAAACUGUUUGAAGUUAUUGAAACAGAGAAGACACUCUAUUUGGUCAUGGAAUACGCAAGUGGGGGUGAAGUCUUUGAUUACUUAGUUGCCCACGGAAGAAU | 0.356 ratio
CGCUAUCUGCCUUGGCUUUAUCAUCCCCCCUCUGCAAUGCAGCAAGGACCUAAAGAAUUCAUUGAGUGUGUCUCCCAUAUCCGACUGUUGUCCUGGCUGCUGCUGGGUUCCCUCACUCAC | 0.536 ratio
ACAAAGCAGCUGACAGAAAUGCUACCCAGCAUCUUAAACCAGCUUGGUGCGGAUAGUCUGACUAGUUUAAGGAGACUGGCCGAAGCUCUGCCCAAACAAUCUGUGGAUGGAAAAGCACCA | 0.0621 ratio

Study 4 — technique: RNA Bind-n-Seq; form: RNA; matrix: in vitro; tested at: 200 nM; setting: whole 134-nt RNA, ends assumed; added: 150 mM KCl; reference: input library; direction: higher = stronger binding
Target: Ras GTPase-activating protein-binding protein 1, full length (G3BP1, Homo sapiens, UniProt Q13283)
Chain of UniProt Q13283 (whole entry, looked up): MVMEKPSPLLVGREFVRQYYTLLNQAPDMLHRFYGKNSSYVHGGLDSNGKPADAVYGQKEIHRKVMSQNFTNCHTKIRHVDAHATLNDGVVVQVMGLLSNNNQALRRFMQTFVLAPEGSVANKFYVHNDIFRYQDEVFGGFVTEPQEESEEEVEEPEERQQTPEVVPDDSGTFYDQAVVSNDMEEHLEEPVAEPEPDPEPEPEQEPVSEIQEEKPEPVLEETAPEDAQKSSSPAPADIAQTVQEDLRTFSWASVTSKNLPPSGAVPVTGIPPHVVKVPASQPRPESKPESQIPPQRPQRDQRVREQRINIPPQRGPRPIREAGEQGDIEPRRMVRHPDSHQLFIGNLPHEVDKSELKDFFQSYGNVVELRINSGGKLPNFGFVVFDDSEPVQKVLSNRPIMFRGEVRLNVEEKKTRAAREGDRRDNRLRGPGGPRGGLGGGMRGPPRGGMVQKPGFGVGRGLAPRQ
Shared flanks, not repeated: GGGAGUUCUACAGUCCGACGAUC … UGGAAUUCUCGGGUGUCAAGG
Strand | log2 enrichment
UCCUGUGCUACACAUCGUAUGUACCGAAUCGGGCCCCCCGGGGCCCCCCGGCCCCCCGGGAAAGUAUUAUGUUACGCCGUUCGGAUCUGC | -0.696
UCCUGUGCUACACAUCGUAUGUACCGAAUCGGGGUUUGGGGAAAAAGGGGAAAAAGGGGAAAGUAUUAUGUUACGCCGUUCGGAUCUGCA | 0.71
CCUGUGCUACACAUCGUAUGUACCGAAUCGGGGAAAAAAGGGGAAAAAAGGGGAAAAAAGGAAAGUAUUAUGUUACGCCGUUCGGAUCUG | -0.381
GCAGGAAGUAAAAACAAAUGGAAAUGCUUCGGAUAGUGGCAGGGGUGGGGGUUACUAAGGAAAGGGUGGGAUGGGAGUGGGUAAAGAGUU | 0.901
AGUCCUGUGCUACACAUCGUAUGUACCGAAUCGGGGUUUUGGUUUUGGGGUUUUGGGAAAGUAUUAUGUUACGCCGUUCGGAUCUGCACU | -0.378
UUGACCUAGAGGAUGAGACCAUUGAUGCCGAGGUCAUGAACUCUCUAGCAGUUACUAUGGAUGACUUCCGGGUAAGGACCACACCCGUGC | -1.64
GUCCUGUGCUACACAUCGUAUGUACCGAAUCGGGUGGGUUUUUUUGGGUUUUUUUGGGAAAGUAUUAUGUUACGCCGUUCGGAUCUGCAC | -0.281
CUCAAGUCCUGUGCUACACAUCGUAUGUACCGAAUCGGUGGAAAGGAAAAAGGAAAGUAUUAUGUUACGCCGUUCGGAUCUGCACUUCCA | -0.489
GUCCUGUGCUACACAUCGUAUGUACCGAAUCGGGGUUUUUGGGGAAAAAGGGGUGGGGAAAGUAUUAUGUUACGCCGUUCGGAUCUGCAC | 0.437

Repeated from above (study 2):
Strand | fluorescence intensity [a.u.]
GAAAAAAGAACAGGTGACTCCGTTTTCAAAATATAG | 2760
GAAATGAACGCTACTGATGATGCAAATGAAGCTTAG | 555
CTAATATAAGGTGTTCACGCGATTTTCTTGTTATTC | 611
CTAATCCATTTTTAAAACGTGTGACTGTTTTCCTTC | 746
